Results gathered from unrelated publications.
Every numbered part comes from another study and shows a few of its results, in no order.

Block 1
Target: Hepatocyte nuclear factor 3-beta, forkhead domain (FOXA2, Homo sapiens, UniProt Q9Y261, residues 142-269)
Technique: protein-binding microarray
Molecule type: double-stranded DNA, one strand shown
Medium: in vitro
Concentration: not given
Notes: k-mer, scored over probes, only values ≥0.25
Direction: higher = stronger binding
Construct (chain): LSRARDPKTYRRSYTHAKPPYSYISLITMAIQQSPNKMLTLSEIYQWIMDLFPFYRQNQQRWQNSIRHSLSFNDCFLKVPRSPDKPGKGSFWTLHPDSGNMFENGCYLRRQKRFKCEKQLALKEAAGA
`GTTACATA` has an E-score of 0.327.
With `AGATAATA` the E-score was 0.281.
`ACATAACG` has an E-score of 0.306.
The E-score of `AACATACT` is reported as 0.265.
With `AAATAATA` the E-score was 0.292.
`AATAACGA` has an E-score of 0.277.
`AACATGTA` gave an E-score of 0.35.
`CTGATAAA` has an E-score of 0.288.
`TGCATAAA` has an E-score of 0.259.
`ATACATTC` has an E-score of 0.317.
`ATGTAATG` gave an E-score of 0.342.
For `ACCATAAT`, the E-score was 0.304.
With `ATACCATA` the E-score was 0.355.
`AAATACAG` gave an E-score of 0.32.
`AGTGTTGA` has an E-score of 0.262.
`CTAATTAG` has an E-score of 0.28.
The E-score of `GTACACAC` is reported as 0.397.
The E-score of `ACTTAATA` is reported as 0.352.
With `CAAGTGTA` the E-score was 0.338.
For `ACACAAAC`, the E-score was 0.37.
With `ATTGTAGG` the E-score was 0.281.
`AAATATAG` has an E-score of 0.29.
For `CAATATGA`, the E-score was 0.269.
`ACACAAGC` gave an E-score of 0.256.
For `GATACAGA`, the E-score was 0.254.

Block 2
Target: Interferon regulatory factor 7, full length, phosphomimetic (IRF7, Homo sapiens, UniProt Q92985, residues 1-503, S471D/S472D/S475D/S476D/S477D/S483D/S484D/S487D)
Technique: protein-binding microarray
Molecule type: double-stranded DNA, one strand shown
Medium: in vitro
Concentration: 2200 nM top
Notes: 60-bp whole probe
Added: salmon DNA 0.4 mg/ml
Reference: random background probes
Direction: higher = stronger binding
Constant ends, left off below: GCCTAGCAC … GTCTTGATTCGCTTGACGCTGCTG
Construct (chain): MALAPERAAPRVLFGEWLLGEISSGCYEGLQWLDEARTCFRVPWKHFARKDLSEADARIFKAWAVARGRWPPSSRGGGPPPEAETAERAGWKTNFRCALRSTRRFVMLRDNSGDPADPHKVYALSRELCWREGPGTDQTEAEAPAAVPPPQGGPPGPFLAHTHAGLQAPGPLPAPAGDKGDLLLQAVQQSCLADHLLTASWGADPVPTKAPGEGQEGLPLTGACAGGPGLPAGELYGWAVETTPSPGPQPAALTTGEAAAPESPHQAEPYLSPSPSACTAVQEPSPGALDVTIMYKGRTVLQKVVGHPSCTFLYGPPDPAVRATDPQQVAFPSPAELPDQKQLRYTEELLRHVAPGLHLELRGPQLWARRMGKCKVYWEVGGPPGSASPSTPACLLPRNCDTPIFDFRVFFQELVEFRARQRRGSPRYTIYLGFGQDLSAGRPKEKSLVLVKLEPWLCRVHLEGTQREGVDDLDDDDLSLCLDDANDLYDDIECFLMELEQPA
`TCAATTATTGTTTCCTCACTGTGCTAG`: “fitted relative affinity” 1.64 z-score.
For `GAAGGACTGGGTTTCGGGACGTGCTAG`, “fitted relative affinity” read 1.16 z-score.
`GACGGTATCCTTATCCTCACGTGCTAG`: “fitted relative affinity” 0.95 z-score.
`TCATGTTTTTTTCTACTTCTGTGCTAG`: “fitted relative affinity” 2.69 z-score.
For `TTGCTTCTATAGGCTAGAATCGTGCTA`, “fitted relative affinity” read 0.0605 z-score.
`TCACATTTTGGTTTTCAACTGTGCTAG`: “fitted relative affinity” 2.74 z-score.
`AGACCTTGCTTTATGTGTAGGTGCTAG`: “fitted relative affinity” 0.548 z-score.
For `ATGTCTTCCCCTCTCTTTCCGTGCTAG`, “fitted relative affinity” read 2.6 z-score.
For `GACCGTTTCGGTTTCGGGACGTGCTAG`, “fitted relative affinity” read 11.8 z-score.
`CACCTTCTTCATCAAGGACAGTGCTAG`: “fitted relative affinity” 1.31 z-score.
`TCATACATGCATATAGTACTGTGCTAG`: “fitted relative affinity” 0.847 z-score.
`GACGGTATCGACTTTCTGGACGTGCTA`: “fitted relative affinity” 1.21 z-score.
`TTAGATATCATACTGGATTAGTGCTAG` — result for “fitted relative affinity”: -0.0318 z-score.
`GACAATTTCGGGTTTCGAGACGTGCTA` — result for “fitted relative affinity”: 5.6 z-score.
`TCACCTCTCTCTTTCCAACTGTGCTAG`: “fitted relative affinity” 2.9 z-score.
Under “fitted relative affinity”, `CTCTTTCTCTGCTACCCTTTGGTGCTA` is recorded as 2.61 z-score.
Under “fitted relative affinity”, `GACGCTATCCTTTTCCTGACGTGCTAG` is recorded as 1.93 z-score.
For `TCATTTCCCAAGTTTATAACTGTGCTA`, “fitted relative affinity” read 1.95 z-score.
`TTAAGTATCGACTTTCGGTTAGTGCTA`: “fitted relative affinity” 6.57 z-score.

Block 3
Target: RNA binding protein fox-1 homolog 2, RRM domain, GST-SBP tag (RBFOX2, Homo sapiens, UniProt O43251-10, residues 100-194)
Technique: RNA Bind-n-Seq
Molecule type: RNA
Medium: in vitro
Concentration: 365 nM
Notes: natural RNA segment, single round, ends assumed
Reference: no-protein control
Direction: higher = stronger binding
For `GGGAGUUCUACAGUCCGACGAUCAUAAGCAAGAGUCUUUCAUUGUCAGAAUAAGUAUUUUUCACGAUCUGUUUGAAGAGCAUCAUUGCUAACUAGCAUGAAGCAGAGGGCAAUGAUGCCUGUAAAUAUGAAAAUGGAAUUCUCGGGUGCCAA`, “RBNS enrichment (R)” read 2.54.
`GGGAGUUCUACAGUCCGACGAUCGAUAGUUGACCUCUGAGUCAGUGAGACCAACAAUGAGUGGUGGCCCCAGGCUUUGUUUCCUUUGCUCGUGCCUUAUACUCACAUAUAUCCAAUAUAACCCAUGGUGUUAAUGGAAUUCUCGGGUGCCAA` — result for “RBNS enrichment (R)”: 0.474.
`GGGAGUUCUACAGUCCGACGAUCUCCUGUCUUAGCCGCAGUCUCCAGAACCCAUGAUGAACUGUGAUCUGCCGUGGUCCUGCCGUGGUCCUGCCGUGGAGCCUGUCCCUACACAUGACCUUGGAGCCUCUUGGUGGAAUUCUCGGGUGCCAA`: “RBNS enrichment (R)” 0.366.
`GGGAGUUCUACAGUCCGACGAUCCUGGCCCCCCCUUAACACUGGAGCCCCACUCCCUUCUCCCAUCCGGCCCGAGAUUAGGGAGGAUUGACUGUGUCAGGGAUGGCGGGUGGCCUCUCUCGCUGCCAGGGCCCUGGAAUUCUCGGGUGCCAA`: “RBNS enrichment (R)” 0.477.
Under “RBNS enrichment (R)”, `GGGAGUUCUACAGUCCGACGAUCACCCUGGCUCAAGUUCCAGCACUGGAAAGACCAAAGUGCAAACGUGCAUGGGAGGAGUGAGGGUAACAGAGGCCAUGGCGUACGUCUUCCUUUGCAGCUAGGGAAAGAGAUGGAAUUCUCGGGUGCCAA` is recorded as 1.3.
For `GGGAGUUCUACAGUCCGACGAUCAUUUUACAAUAUUUUUUCUUUACAAUAUGUUCUGUAGUAUGUUUACCCUCUUUAUGAAGUGAAUUACCAAUGCUUUGAAUAAUGUUCACUUAUACAUUCCUGUACAGAAAUGGAAUUCUCGGGUGCCAA`, “RBNS enrichment (R)” read 1.48.
For `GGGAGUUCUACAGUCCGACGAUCCCCCAGUAGGCCUGUCCUGGCCAGAGAAGACUGGUAGGGGCCGAGUGGGGUUUGAAGGCAGCCGGCCCGGCCCAGCCCAGGAGCGCUAUUUAUUGCAUAUUUAUUGUUUGUGGAAUUCUCGGGUGCCAA`, “RBNS enrichment (R)” read 1.2.
For `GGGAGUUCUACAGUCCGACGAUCAGCAGAGCUCCUGGGAAAAGAGACUGGAAGUGGUUCAGGAUAAAGAGAUCCAUGGUGGGCAGGGCUGUUAGGUCACAGAGCUCUAGAAGCAGCUGGACUUGAACCCACAAUGGAAUUCUCGGGUGCCAA`, “RBNS enrichment (R)” read 0.83.

Block 4
Target: Prothrombin, mature alpha-thrombin (F2, Homo sapiens, UniProt P00734)
Technique: aptamer microarray, sandwich
Molecule type: DNA with 2'F-ANA
Medium: in vitro
Concentration: 200 nM
Notes: whole 15-mer aptamer, many near background
Added: Cy3 exosite-II aptamer, 400 nM
Direction: higher = stronger binding
Sequence: GGTTGGTGTGGTTGG
`2'F-ANA at 1 2 3 4 6 8 11 14 15`: “mean fluorescence intensity” 58.8 a.u.
`2'F-ANA at 2 3 5 6 7 12 13 14 15` — result for “mean fluorescence intensity”: 56.8 a.u.
`2'F-ANA at 2 3 7 11 12`: “mean fluorescence intensity” 1130 a.u.
`2'F-ANA at 1 3 5 6 10 14`: “mean fluorescence intensity” 45.7 a.u.
`2'F-ANA at 1 2 4 6 7 9 11 12 13` — result for “mean fluorescence intensity”: 144 a.u.
For `2'F-ANA at 2 3 4 6 10 12 13 14 15`, “mean fluorescence intensity” read 165 a.u.
For `2'F-ANA at 1 2 3 6 8 9 11 13 14 15`, “mean fluorescence intensity” read 65.2 a.u.
`2'F-ANA at 3 7 8 12 14 15` — result for “mean fluorescence intensity”: 845 a.u.
Under “mean fluorescence intensity”, `2'F-ANA at 4 6 7 9 13 14 15` is recorded as 64.1 a.u.
`2'F-ANA at 1 2 3 4 6 7 10 12 13`: “mean fluorescence intensity” 58.4 a.u.
`2'F-ANA at 4 5 8 10 12 14`: “mean fluorescence intensity” 44.4 a.u.
For `2'F-ANA at 1 4 5 6 7 8 9 11 12`, “mean fluorescence intensity” read 87.6 a.u.
`2'F-ANA at 2 5 6 7 8 9 15`: “mean fluorescence intensity” 78.6 a.u.
`2'F-ANA at 2 4 5 7 8 12 14 15`: “mean fluorescence intensity” 81.7 a.u.
`2'F-ANA at 3 4 5 9 11 15` — result for “mean fluorescence intensity”: 121 a.u.
`2'F-ANA at 2 5 8 9 11 13`: “mean fluorescence intensity” 82.7 a.u.
`2'F-ANA at 1 12 13 14`: “mean fluorescence intensity” 69.7 a.u.
`2'F-ANA at 2 4 5 6 7 10 11 12`: “mean fluorescence intensity” 52 a.u.
For `2'F-ANA at 3 5 7 8 12`, “mean fluorescence intensity” read 304 a.u.
`2'F-ANA at 2 4 6 7 10 11 13 15` — result for “mean fluorescence intensity”: 65.3 a.u.
Under “mean fluorescence intensity”, `2'F-ANA at 1 2 4 7 8 10 11 14 15` is recorded as 54.1 a.u.
`2'F-ANA at 2 4 6 7 10 11 12 14 15` — result for “mean fluorescence intensity”: 57.6 a.u.
`2'F-ANA at 3 4 5 6 8 10 13` — result for “mean fluorescence intensity”: 51 a.u.
For `2'F-ANA at 4 5 6 7 8 10 11 12 13 14`, “mean fluorescence intensity” read 46 a.u.
Under “mean fluorescence intensity”, `2'F-ANA at 1 2 3 7 8 14 15` is recorded as 123 a.u.

For quick reference, copied from above (block 3):
`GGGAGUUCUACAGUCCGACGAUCGAUAGUUGACCUCUGAGUCAGUGAGACCAACAAUGAGUGGUGGCCCCAGGCUUUGUUUCCUUUGCUCGUGCCUUAUACUCACAUAUAUCCAAUAUAACCCAUGGUGUUAAUGGAAUUCUCGGGUGCCAA` — result for “RBNS enrichment (R)”: 0.474.
`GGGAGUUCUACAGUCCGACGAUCUCCUGUCUUAGCCGCAGUCUCCAGAACCCAUGAUGAACUGUGAUCUGCCGUGGUCCUGCCGUGGUCCUGCCGUGGAGCCUGUCCCUACACAUGACCUUGGAGCCUCUUGGUGGAAUUCUCGGGUGCCAA`: “RBNS enrichment (R)” 0.366.
`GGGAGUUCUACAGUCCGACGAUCCUGGCCCCCCCUUAACACUGGAGCCCCACUCCCUUCUCCCAUCCGGCCCGAGAUUAGGGAGGAUUGACUGUGUCAGGGAUGGCGGGUGGCCUCUCUCGCUGCCAGGGCCCUGGAAUUCUCGGGUGCCAA`: “RBNS enrichment (R)” 0.477.
Under “RBNS enrichment (R)”, `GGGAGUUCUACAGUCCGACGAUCACCCUGGCUCAAGUUCCAGCACUGGAAAGACCAAAGUGCAAACGUGCAUGGGAGGAGUGAGGGUAACAGAGGCCAUGGCGUACGUCUUCCUUUGCAGCUAGGGAAAGAGAUGGAAUUCUCGGGUGCCAA` is recorded as 1.3.
For `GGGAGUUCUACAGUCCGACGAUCAUUUUACAAUAUUUUUUCUUUACAAUAUGUUCUGUAGUAUGUUUACCCUCUUUAUGAAGUGAAUUACCAAUGCUUUGAAUAAUGUUCACUUAUACAUUCCUGUACAGAAAUGGAAUUCUCGGGUGCCAA`, “RBNS enrichment (R)” read 1.48.
For `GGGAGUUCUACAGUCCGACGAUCCCCCAGUAGGCCUGUCCUGGCCAGAGAAGACUGGUAGGGGCCGAGUGGGGUUUGAAGGCAGCCGGCCCGGCCCAGCCCAGGAGCGCUAUUUAUUGCAUAUUUAUUGUUUGUGGAAUUCUCGGGUGCCAA`, “RBNS enrichment (R)” read 1.2.
For `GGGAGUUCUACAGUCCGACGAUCAGCAGAGCUCCUGGGAAAAGAGACUGGAAGUGGUUCAGGAUAAAGAGAUCCAUGGUGGGCAGGGCUGUUAGGUCACAGAGCUCUAGAAGCAGCUGGACUUGAACCCACAAUGGAAUUCUCGGGUGCCAA`, “RBNS enrichment (R)” read 0.83.
